Assay results collected from several papers.
Every numbered part comes from another study and shows a few of its results, in no order.

Series 1 — method: protein binding microarray; molecule type: double-stranded DNA, one strand shown; sample: in vitro; concentration: not given; relative to: not given; direction: higher = stronger binding
Target: Histone acetyltransferase KAT6A, both winged helices, GST fusion (KAT6A, Homo sapiens, UniProt Q92794, residues 1-181)
Setting: 8-mer, flanks averaged, mean of 2 arrays, mostly near background
Construct (chain): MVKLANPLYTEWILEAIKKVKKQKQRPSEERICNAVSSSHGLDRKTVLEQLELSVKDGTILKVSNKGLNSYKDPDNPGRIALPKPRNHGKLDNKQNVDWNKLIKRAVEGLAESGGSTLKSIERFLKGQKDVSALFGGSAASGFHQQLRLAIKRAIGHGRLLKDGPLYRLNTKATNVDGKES
Strand	E-score
CGCGCACA	0.324
GAGTCACC	-0.07
AACCTTCA	-0.211
AGTCAAAT	-0.157
AGAAACCA	-0.0649
ATGATCAA	-0.0378
GACCGGGA	0.212
AGGTACTG	-0.141
TCCACGAA	0.055
AATGTACT	-0.0236
CGATTATC	0.0931
AGGGCTAA	-0.037
CCAAGCAC	-0.116
ACGGCGAT	0.328
GGCCCCCA	-0.165
TCATGGGA	-0.0972
CAGGGATC	-0.215
CGAGTCCC	-0.0128
CATGATCC	-0.137

Series 2 — method: RNA Bind-n-Seq; molecule type: RNA; sample: in vitro; concentration: 365 nM; relative to: no-protein control; direction: higher = stronger binding
Target: RNA binding protein fox-1 homolog 2, RRM domain, GST-SBP tag (RBFOX2, Homo sapiens, UniProt O43251-10, residues 100-194)
Setting: natural RNA segment, single round, ends assumed
Shared flanks, not repeated: GGGAGUUCUACAGUCCGACGAUC … UGGAAUUCUCGGGUGCCAA
Residues (chain): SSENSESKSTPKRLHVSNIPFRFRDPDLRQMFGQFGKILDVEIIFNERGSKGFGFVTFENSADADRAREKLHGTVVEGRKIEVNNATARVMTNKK
Strand	RBNS enrichment (R)
UUAAUUAGCUAGCUAGAGUCAGUUGAUAUCUCUACCAAGCUGAAGCCUAGUACCUACGAAGCUAUUUCUUUACCAAAGUCUCUUGCUUCUGCUUAUGGUCGUGAGCUGAU	0.291
GUGUGGUCUCCCCUUGUUUGGGGCUCAUACUGGGUAAGAGGCCCAGGAUAGCCAGCUUGCUUCUCUGUUAUGUUACCAUGCAUUUCUAAAACCACUCCAGCUGUUAAUCU	1.61
CAGUUGUGGGUCACUGUCCCUUCCAGCUGCCCCAGACAGGAAGCAGAGUCACCACGCAGCAGUGUCCCUUCUUGGGUCUGAGUUCCUAUUAUAGGUAGGGGCCCCACCCU	0.324
AUUUAUAAUUCUACAGUACCUAUUAAUGCUGUACUUCCAGGAUGCUCAUGCCCAUUUUAUUCUUAUAUGUAUGCUACAUACAGUAUGUUGGUUUCCCGAAUAGUGUGCAU	0.618
GGCUCUGUCUCUAAGCCAGGUGUCAGGAUCAGAAUCAUGGGUAGAAGGUGCCAUUCAGCUCACAGCCGCACCCAGAAUCCUUUGCAGCCCUCCUUCUUUAUUUUUUUCCC	0.583
AAAUUAAGAUUUCCUUAACCUUAACCUUAAAAUUGAUAUUAUAUUAAACAUACAUAAUACAAUGUAACUCCACUGUUCUCCUGAAUAUUUUUUGCUCUAAUCUCUCUGCC	0.955
CCUGAGAGGUCAAGGUUGCAAUGAGCCAUAAUCAUACCACUGCACUCCAGCCUGGGCAACAGAGUGAGGCCCUGUCUCAAACACAUAAAAGGCAGUGGCCCACGCCUGUA	0.308
CCUCAGCCUGGGACACCUAGGUGGAGAGAGUGGUCUCCGCUCUGAAUUGGAUCCAGGGGACCUGGGCUCAUUCUUCUUGGCUCACCAACCCUGCAGGCCUCAUCUUUCCC	0.343
UUCUGUUUGCCAUUGUUACUUGUACUAUACAUCUGUAUAUAGUGUACGGCAAAAGAGUAUUAAUCCACUAUCUCUAGUGCUUGACUUUAAAUCAGUACAGUACCUGUACC	0.258
CCGCUUACUCUGGAUGCAGAUGGCUGCUGCCGAUCCACUCUGUCUUUCUCGGGCUGCUUUUGCGUCGUUGUCCUAGGUGGCCAGAUUGUCUUGAUAAGAGCAGAUCUGGG	0.525
UUUUUUUGGCCAAAUCUCGUGGUGUUUCGCAGAAAAAAAUCCAGAAAAUUUCAAAUGCAGUUGAGUAUUCUUUUUUAAAUGCAGAUUUUCAAAACAUAUUUUUUUUCAGG	1.11
UGGAAUGCAGCAUUACCUGCUGGACAGAGCAGGGCAGGCAGUUCUAUGCCUUGGAGCUCCUGACUGCAGGGACUCUGUCCCCACACUCAAAAAGACUCAGCUCACUCAAU	0.36

Series 3 — method: RNA Bind-n-Seq; molecule type: RNA; sample: in vitro; concentration: 20 nM; setting: 6-mer, flanks averaged, single round; added: 150 mM KCl; relative to: input library; direction: higher = stronger binding
Target: TAR DNA-binding protein 43, full length, His tag (TARDBP, Homo sapiens, UniProt Q13148, residues 1-414)
Strand	6-mer enrichment (R)
CAGCAC	0.713
AGUAAC	0.635
CUACAG	0.665
UAACUU	0.581
AGACUU	0.583
CUGUUU	0.655
UAGAGU	0.862
UGACGC	0.812
UGCUGG	1.43
GCGGUC	1.34
CCACCC	0.645
GUUCCG	0.783
UUUGUC	0.62
CCGAGG	1.63
GUAAUC	0.607
GAUUGA	0.826
GACAAC	0.725

Series 4 — method: RNA Bind-n-Seq; molecule type: RNA; sample: in vitro; concentration: 1 µM; setting: whole 134-nt RNA, ends assumed; added: 150 mM KCl; relative to: input library; direction: higher = stronger binding
Target: Ras GTPase-activating protein-binding protein 1, RRM domain (G3BP1, Homo sapiens, UniProt Q13283)
Sequence of UniProt Q13283 (whole entry, looked up): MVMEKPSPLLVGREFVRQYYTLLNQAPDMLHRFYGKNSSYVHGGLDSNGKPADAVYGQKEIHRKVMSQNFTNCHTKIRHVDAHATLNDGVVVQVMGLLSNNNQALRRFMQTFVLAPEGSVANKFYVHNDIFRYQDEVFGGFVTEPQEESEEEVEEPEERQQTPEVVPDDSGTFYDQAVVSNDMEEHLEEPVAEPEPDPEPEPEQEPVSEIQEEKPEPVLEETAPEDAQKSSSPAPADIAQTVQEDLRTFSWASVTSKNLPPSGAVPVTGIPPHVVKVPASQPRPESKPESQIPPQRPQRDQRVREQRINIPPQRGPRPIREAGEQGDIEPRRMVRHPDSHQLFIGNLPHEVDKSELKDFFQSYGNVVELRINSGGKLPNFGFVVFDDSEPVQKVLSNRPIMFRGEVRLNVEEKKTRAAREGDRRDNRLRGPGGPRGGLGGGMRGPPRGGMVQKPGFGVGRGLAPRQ
Shared flanks, not repeated: GGGAGUUCUACAGUCCGACGAUC … UGGAAUUCUCGGGUGUCAAGG
Strand	log2 enrichment
CCUGUGCUACACAUCGUAUGUACCGAAUCGGUUUUUUUGGUUUUUUUGGGUUUUUUUGGGAAAGUAUUAUGUUACGCCGUUCGGAUCUGC	-0.398
GUCCUGUGCUACACAUCGUAUGUACCGAAUCGGGGAAAGGGGUUUUUUUGGGGAGGGGAAAGUAUUAUGUUACGCCGUUCGGAUCUGCAC	1.14
UCCUGUGCUACACAUCGUAUGUACCGAAUCGGGUUUUUGGGUUUUUGGGUUUUUUUGGGAAAGUAUUAUGUUACGCCGUUCGGAUCUGCA	0.0295
AUUAAGGUCACCGUUGCAGGCCUGGCUGGAAAAGACCCAGUACAGUGUAGCCGUGAUGUGGUCAUUUGUCCUGAUGCCAGCCUUGAAGAU	-0.275
ACCAUGCAGGUGGGCAUCUUUGGGAAGUGGGGCAAGGGGGGCAUAGGGAGGGGGGUAACACUUUGGGAACAGGUGGUCCCAGGUCGUUUC	0.924
CACAGACAACACGCAAACACACAGACACAGAGGGAAGGGGUUGGGAUGGGGACAGGGUGCACAGCAGGGCGGGGUAGGACCCCAGCCCCU	-0.105
CACAGACAACACGCACCCAUACAGACACAGAGGGAAGGGGUUGGGAUGGGGACAGGGUGCACAGCAGGGCGGGGUAGGACCCCAGCCCCU	0.199
UCAAGUCCUGUGCUACACAUCGUAUGUACCGAAUCGGAAAGGGAAAGGGAAAGGGAAAGUAUUAUGUUACGCCGUUCGGAUCUGCACUUC	-0.141
CACAGACAACACGCACCCACACUGACACAGAGGGAAGGGGUUGGGAUGGGGACAGGGUGCACAGCAGGGCGGGGUAGGACCCCAGCCCCU	-0.0838
GUCCUGUGCUACACAUCGUAUGUACCGAAUCGGGUUUUUGGGUUUUUGGGGUUUUUGGAAAGUAUUAUGUUACGCCGUUCGGAUCUGCAC	-0.182
CAAGUCCUGUGCUACACAUCGUAUGUACCGAAUCGGUUUUGGUUUUGGGUUUUGGAAAGUAUUAUGUUACGCCGUUCGGAUCUGCACUUC	-0.264
CUCAAGUCCUGUGCUACACAUCGUAUGUACCGAAUCGGGCGGGGCGGGGCGGGGAAAGUAUUAUGUUACGCCGUUCGGAUCUGCACUUCC	0.816
AGUCCUGUGCUACACAUCGUAUGUACCGAAUCGGGGUUUUUGGUUUUUGGUUUUUGGAAAGUAUUAUGUUACGCCGUUCGGAUCUGCACU	-0.245
CCUGUGCUACACAUCGUAUGUACCGAAUCGGGGUUUUUGGGGAAAAAGGGGAAAAAGGGGAAAGUAUUAUGUUACGCCGUUCGGAUCUGC	0.751

Series 5 — method: protein-binding microarray; molecule type: double-stranded DNA, one strand shown; sample: in vitro; concentration: 0.8 µM; setting: whole 60-bp probe, no competitor; direction: higher = stronger binding; shared flanks, not repeated: … GTCTTGATTCGCTTGACGCTGCTG
Target: Centromere-binding protein 1, full length, N-terminal tag (CBF1, Saccharomyces cerevisiae, UniProt P17106, residues 1-351)
Sequence of UniProt P17106 (whole entry, looked up): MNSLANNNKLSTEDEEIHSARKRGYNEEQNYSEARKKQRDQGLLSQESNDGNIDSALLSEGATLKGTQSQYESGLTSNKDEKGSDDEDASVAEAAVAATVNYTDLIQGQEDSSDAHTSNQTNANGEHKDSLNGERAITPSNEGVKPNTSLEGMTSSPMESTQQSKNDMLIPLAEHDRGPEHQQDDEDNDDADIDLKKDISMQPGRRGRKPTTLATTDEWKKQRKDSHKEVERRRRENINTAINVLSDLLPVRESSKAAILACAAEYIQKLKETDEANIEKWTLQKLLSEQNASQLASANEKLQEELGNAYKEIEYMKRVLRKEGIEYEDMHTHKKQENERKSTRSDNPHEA
Strand	fluorescence intensity [a.u.]
GAAATTAATTAGTCTCACATGGCTGACATAACGTAG	946
GAAAGGATTGTTTGTCAGGTGTCGCGGCCACAATAG	1070
CTATTCAATCACCCCCTCGTGAGAATTTAATGTTTC	655
CTATATCGACAGCTTCACGTGCCATTTGCCATTTTC	3260
GAAGCATTTGATGGCCGTCACATGGTACGCCACTAG	3750
CTATGCGACGGTATCCACGTGCAGAACAACATATTC	2930
GAATCACGTGTTTTCCATGCGTGCGTTGCTTCTTAG	15700
GAAGTTAGCCTTAAGAACGTGTCCAAACCTCTTTAG	542
CTAAAAAAGAAACGTGATGTGAAAATGTGTTCATTC	2970
CTAATCCTTTTTTAGCACGTGAACGGTAATAACTTC	11000
GAAAAGTTTAGCATTCACGTGTAACTGCAATGATAG	3740
GAATTTATTAGAAATGGGGTCACAATCATCCGATAG	579
CTACAGTATGTCCACCACGTAAATCAACAAAATTTC	505
GAACAGCTGTAATCTATCGTGGTCATTTCTTGTTAG	536
CTAACTTTCGCCCACGTGCGTACATCATTTACTTTC	3780
GAAATACTTGTTGACGACATCACGGTCTCTGTTTAG	593
CTAGCGGGGAGACGTGTTGTTTTTCCACGGCTTTTC	523
CTAAGCATCCCACGCCGCGTGGTGCCTTTGTTCTTC	518
CTACAACAAGGTTGTCATGAGGAGTTACAGATATTC	530
GAATTCACCAATGATCTCCTGAAGCCCCTCAATTAG	515
GAAAAAAAATTACGTGACGCGACGCGTTTGTTTTAG	634
CTATGTGTTGGCTCTCACCTGCGCTTGCTGCAATTC	559
GAAGTATGGAATCATCAACTGATATGGCCGTCATAG	531
GAATGATATGATAGCGACATCACTGCCGTGCAATAG	531
GAAGATTGCCCTTCTCATCTGACCGCTACCCATTAG	572

Series 6 — method: universal PBM; molecule type: double-stranded DNA, one strand shown; sample: in vitro; concentration: not given; direction: higher = stronger binding
Target: Sal-like protein 4, full length isoform B (SALL4, Homo sapiens, UniProt Q9UJQ4-2, residues 1-616)
Setting: 8-mer, flanks averaged, mean of replicates
Strand	E-score
ACGAGCAC	-0.148
ATTCACAC	0.0577
ATGTGCCA	0.0398
AATTCCGA	0.128
ACAACCAC	-0.0205
AGCGACCT	-0.177
CACAAGTG	-0.0548
CACAGTTA	0.139
AAATCGAC	0.00179
AAGCATTA	0.199
AGGGCATG	-0.0459
GTGAACAC	-0.0885
ACTATGCA	0.00556
CCAGACAC	-0.143
AACCCCAA	-0.057
CACAGATG	0.0888
TATTAAAA	0.452
CATTTTCG	0.0708
AGTACCAA	0.0685
AGGGGAGG	-0.168
CCATATGC	0.0911
CTACCGAA	-0.0244
GCTCTCCA	-0.0769

For quick reference, copied from above (series 6):
Strand	E-score
CACAAGTG	-0.0548
CACAGTTA	0.139
AAATCGAC	0.00179
AAGCATTA	0.199
AGGGCATG	-0.0459
GTGAACAC	-0.0885
ACTATGCA	0.00556
CCAGACAC	-0.143
AACCCCAA	-0.057
CACAGATG	0.0888
TATTAAAA	0.452
CATTTTCG	0.0708
AGTACCAA	0.0685
AGGGGAGG	-0.168
CCATATGC	0.0911
CTACCGAA	-0.0244
GCTCTCCA	-0.0769
